Experimental data of several laboratories.
Parts stem from different laboratories: compare values within a part only.

Set 1 — method: RNA Bind-n-Seq; molecule type: RNA; matrix: in vitro; concentration: not given; relative to: input RNA pool; reading: higher = stronger binding
Target: RING finger protein unkempt homolog, zinc fingers 1-6, GST-SBP tag (UNK, Homo sapiens, UniProt Q9C0B0, residues 30-357)
Setting: RNA with constant flanks, human and mouse sites, ends assumed
All sequences stand within: GGGAGUUCUACAGUCCGACGAUC … CAACAGAGGAUUGAGCAUCA
Residues (chain): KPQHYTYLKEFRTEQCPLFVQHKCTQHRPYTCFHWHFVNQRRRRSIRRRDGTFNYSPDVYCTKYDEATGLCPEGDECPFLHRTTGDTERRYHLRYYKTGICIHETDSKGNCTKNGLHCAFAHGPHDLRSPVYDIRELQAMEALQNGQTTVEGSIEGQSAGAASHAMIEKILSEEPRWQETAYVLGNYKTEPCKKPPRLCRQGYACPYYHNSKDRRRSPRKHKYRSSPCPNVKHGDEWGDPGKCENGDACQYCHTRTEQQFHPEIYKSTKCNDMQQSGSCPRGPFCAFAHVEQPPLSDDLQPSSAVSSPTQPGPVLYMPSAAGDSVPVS
Oligonucleotide	bound/input enrichment
GAUGAGCAACGGCAGCCUUUAACAGUUGAGCACAUGUAUGAAGACAUCAGUCAAGAUCAUGUGAAGAAAACAGUGACCAUUGAAAACCAUCCUCAUCUCCCACCACCUCCUAUGUGUUCA	0.141 ratio
AAUAAUACUAUUCAAAAUGGAGGAGGAGAUGACUUAUCUAAUCAGGAAUUAAUUGGAAAAAAAGAAUAUAAAAUGUCUUCAAAGAAACUAAAAAUUGGUGAAAGAACAAAUGAAAGGAUA	0.377 ratio
ACAUCAGCGAACUCAUGCAGGGGAAAAGCCUUAUGGGUGCAGUGAAUGUGGGAAAGCUUUUAGCAGCAAGUCAUACCUAAUUAUACACAUGAGAACUCAUUCAGGUGAAAAACCAUAUGA	0.183 ratio
GGUGUGUUUUUUCUGGAUAUCACAUUUUCAUCAGAUUAUCCAUUUAAGCCACCAAAGGUUACUUUCCGCACCAGAAUCUAUCACUGCAACAUCAACAGUCAGGGAGUCAUCUGUCUGGAC	0.182 ratio
CUUAAUGUUAAUAUUUUUGAAUAAAUGAAGCUAAAAUGUCUGCUUUUGGUACAACACGCAUUAAUAAAAGGUUAAGUUUUGUUUUCCACUGAAGUACUAUUUAACAUCUCAGAAAAAAAC	0.289 ratio
AGCACAUGGUUUGGGACUUGCACGUUCUGCCAUGGAGGAGUCUUCAGUGACAGUUGGCACAAUAGACGUUUCUUAUCUGCCCAGUUCAUCGGAAUACAGCCUUGGCCGAUGUAAACACAC	0.224 ratio
CCAAUCGUGGAGCAGUACUUGAAGACAAAAAAGAACUCUAGUCAUUUAAUCAUGAAAUACAUUAGCUGCCGGCUGGUGACAUUUGUGGUUAUACUGUUGGCAUGUAUCUACUUGAGCUAU	0.229 ratio
GUUGUGUUUUGUUUUUGUUUCCUUUUGUUUAUGUUUUGGCCUUUCCUCUUUGUCUUUCCAUGUAGACCAGAUAUUUGAAAGGGCAGACGAUGGCUAGAGGUGUAAUGUGCAGCUUGUUUA	0.565 ratio
CCAGGCUGGAGUCAUUUACAAGUUUCUCCACGUAGAUUGUAGUCAGGUUUCUCCCAGACCUUAGGCGUUUGUAUUUUUUUUUUUAAUUUUAAUUUCACUGUUACCCUUGACUAUUGUCCU	451 ratio
AGCUCCCCGUAUUUCCGGGACCAUUCAGCACUGAGCACUAUGAGUGGCUUGUCGAUCUCUGUGAUUAAGAACCCCAGCGUGUUUGAGCAGUUGCUCUCCUUCUGUUACACUGGAAGGAUG	0.0553 ratio
GGCUCCAGGAGCUGUCCUUGAACUUGGAGAAGGAUUUGGGUAAGAAUGCCAGUCCUAGAGUUAGUAGCACGAGGCUUUGUGCCUUGCCCCCAUUGAUGUCUGAUAUUGCUGCAAUCCAGG	1.32 ratio

Set 2 — method: RNA Bind-n-Seq; molecule type: RNA; matrix: in vitro; concentration: 200 nM; setting: whole 134-nt RNA, ends assumed; added: 150 mM LiCl; relative to: input library; reading: higher = stronger binding; all molecules: 7-deaza-guanosine replaces G
Target: Ras GTPase-activating protein-binding protein 1, full length (G3BP1, Homo sapiens, UniProt Q13283)
UniProt Q13283, sequence (whole entry, looked up): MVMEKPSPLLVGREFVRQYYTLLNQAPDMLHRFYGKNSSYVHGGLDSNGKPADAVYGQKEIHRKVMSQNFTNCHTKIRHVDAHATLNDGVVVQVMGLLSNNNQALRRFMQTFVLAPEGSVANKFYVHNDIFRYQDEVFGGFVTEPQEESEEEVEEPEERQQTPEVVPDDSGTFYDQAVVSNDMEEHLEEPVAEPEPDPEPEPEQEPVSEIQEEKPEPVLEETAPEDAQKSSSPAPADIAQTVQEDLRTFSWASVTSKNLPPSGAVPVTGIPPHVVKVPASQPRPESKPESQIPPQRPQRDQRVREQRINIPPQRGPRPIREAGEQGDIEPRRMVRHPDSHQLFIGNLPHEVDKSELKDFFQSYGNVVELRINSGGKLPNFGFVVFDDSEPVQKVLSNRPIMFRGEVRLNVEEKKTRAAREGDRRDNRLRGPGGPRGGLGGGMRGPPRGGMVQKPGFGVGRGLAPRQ
All sequences stand within: GGGAGUUCUACAGUCCGACGAUC … UGGAAUUCUCGGGUGUCAAGG
Oligonucleotide	log2 enrichment
CCUGUGCUACACAUCGUAUGUACCGAAUCGGGCCCCCCGGGGCCCCCCGGGCCCCCCGGGAAAGUAUUAUGUUACGCCGUUCGGAUCUGC	-2.43
GUCCUGUGCUACACAUCGUAUGUACCGAAUCAAAUUUUUAAAUUUUUAAACCCCCAAAAAAGUAUUAUGUUACGCCGUUCGGAUCUGCAC	0.541
GUCCUGUGCUACACAUCGUAUGUACCGAAUCAAAUUUUUUUAAAUUUUUAAAUUUAAAAAAGUAUUAUGUUACGCCGUUCGGAUCUGCAC	-2.88
AAGUCCUGUGCUACACAUCGUAUGUACCGAAUCGGAAAAGGGGAAAAGGAAAAGGGAAAGUAUUAUGUUACGCCGUUCGGAUCUGCACUU	-0.228
AAGUCCUGUGCUACACAUCGUAUGUACCGAAUCGGCCCCGGGCCCCGGCCCCGGGGAAAGUAUUAUGUUACGCCGUUCGGAUCUGCACUU	-0.577
CCUGUGCUACACAUCGUAUGUACCGAAUCGGCCCCCCCGGCCCCCCCGGGGCCCCCCCGGAAAGUAUUAUGUUACGCCGUUCGGAUCUGC	0.287
AGUCCUGUGCUACACAUCGUAUGUACCGAAUCGGGUUUGGGAAAAAGGGAAAAAGGGAAAGUAUUAUGUUACGCCGUUCGGAUCUGCACU	-0.897
UGGGAGGUUGAUUUUGUUUAUUUUUUUAGCUCAUUUCCAGGGGUGGGAAUUUUUUUUUAAUAUGUGUCAUGAAUAAAGUUGUUUUUGAAA	-0.115
AAGUCCUGUGCUACACAUCGUAUGUACCGAAUCAAAUUUAAACCCCCAAACCCAAAAAAGUAUUAUGUUACGCCGUUCGGAUCUGCACUU	1.31
UGUGCUACACAUCGUAUGUACCGAAUCGGGUUUUUUUGGGUUUUUUUGGGGUUUUUUUGGGGAAAGUAUUAUGUUACGCCGUUCGGAUCU	1.83
CCUGUGCUACACAUCGUAUGUACCGAAUCGGGUUUUUUUGGGUUUUUUUGGUUUUUUUGGGAAAGUAUUAUGUUACGCCGUUCGGAUCUG	0.72

Set 3 — method: RNA Bind-n-Seq; molecule type: RNA; matrix: in vitro; concentration: 365 nM; relative to: no-protein control; reading: higher = stronger binding
Target: RNA binding protein fox-1 homolog 2, RRM domain, GST-SBP tag (RBFOX2, Homo sapiens, UniProt O43251-10, residues 100-194)
Setting: natural RNA segment, single round, ends assumed
All sequences stand within: GGGAGUUCUACAGUCCGACGAUC … UGGAAUUCUCGGGUGCCAA
Oligonucleotide	RBNS enrichment (R)
GCUGGGACCUGCCUGGGCCUGGACCUGGGCCCGAGCAGCUGGGGACUUCACUGUCCAUGGGUCCUAGACAGGCCUGCAGGCAGGCAGGGUGCACACGCCUUCCUUCCCUC	0.685
AGUCUUGGAUACUGUCAAGCAAACACCAGAGGCUUGGCCAAGUAUAGUUACAAUUACCUAGUUGGGGUUCUUCCUGAUGCAAGAAAUUUUUCACUGUUCGAGGCACAUGG	0.393
GCCUGCCCGCCUUCUGUCCUGGAUCAGGAAGAUGGUAGCCUGCUGUUAGUAGCUUCACAGGGCUUUUAUGUUUAACUUAUUCCCAGGGGCCGUCCCACCCUGCUGUGCCU	0.73
GCUUUGGGCUUUCUCCUUCUGUGGCCCCGGAGGAAGGAGAGACUGAGGCAAGGCAAAGUGAUAGUACACGGAAGCAGAACCGGAAACACCCAGGAACUGUUCAGAAAUCU	0.675
GUGAAGGCAGGGCAGGUACACUGAGUCUGGAAGCUCUGGGUGAGGCUCGGAGCUUGAAGCUCUUUGAUCCUGAAGUUUGAAUUCCCCUCUGCCUCCCGGCCUGGGCUUGU	0.596
AUAUUUGUGAAAAAUGCCACUGUCCUAGUGAUUUCUGAUGUAAAUAAUGUUGUUUAUAUAGUAUGUAUUAAAUUUUCCUACAUUGUAAAACUGCUGUACUUUUGAUUCUU	0.729
CCAUCUAUUCUUGCAGCCAUCUCAGCCAGGGUCUAUGUCUUAGGACCUUCCUCCGGCCUUCCAUGAGAAGCAGCCACAGGGGGCCUGGUUUCCUCCUAAGGCCCUUCUCU	0.53
CUUCCUCUGCUAAAUUGAUGUUGAUGCAAUCCUUACAAUGAUUGCUUUUAAAAUUUUAAGAUAGGAAAGAAAUCUAUAGAAAGUGUUCUGUUACAAAAUGUAACUGUUAC	0.44
CUGCCGUUAAGCCAAAACAAAAGCUGUGAACAUAGGUGCUUGAGAGAAUGCGUGUUGACAGGAAAGUGACUGAUUUACAGACCCAAGUCUUUGUCUCAUGAAACUACCAA	0.979
GCCCUGUUCCCCACUCCCUCCACUGGCCUCUGCUGUUCCUGUCUUUGCUCACACCCUCACAGCUGCUCUCUGGCAGAGGUUGGCAUAGCCUAGGAGCAGCUGCAAUUGCA	2.95
UGGGUGACAGAUUGGUCAUUUAUUUAAAUAAAGUUAAUACAGAUUAAAUUUGUUUCAAGAGCUAUUGAAUUUUCAAAUUUUCAGUGUAUUUAUAACUUUUAAGAACAUGA	0.611
CCUUUCUUCACCAAGUGCAAUAGAUUUCCUCAUCUGAUAGGCUGUUGCUUUACCGUCACACGCGAUGUGCUCAGCCAAAUUCCCUACUCAAAAUAUCAUGUUAAAUUAGA	0.536

Set 4 — method: EMSA with sequencing; molecule type: double-stranded DNA, one strand shown; matrix: in vitro; concentration: 10 and 20 nM; relative to: negative control set to 0; reading: higher = stronger binding
Target: Hepatocyte nuclear factor 3-alpha (Foxa1, Mus musculus, UniProt P35582, residues 1-468, full length assumed)
UniProt P35582, sequence (whole entry, looked up): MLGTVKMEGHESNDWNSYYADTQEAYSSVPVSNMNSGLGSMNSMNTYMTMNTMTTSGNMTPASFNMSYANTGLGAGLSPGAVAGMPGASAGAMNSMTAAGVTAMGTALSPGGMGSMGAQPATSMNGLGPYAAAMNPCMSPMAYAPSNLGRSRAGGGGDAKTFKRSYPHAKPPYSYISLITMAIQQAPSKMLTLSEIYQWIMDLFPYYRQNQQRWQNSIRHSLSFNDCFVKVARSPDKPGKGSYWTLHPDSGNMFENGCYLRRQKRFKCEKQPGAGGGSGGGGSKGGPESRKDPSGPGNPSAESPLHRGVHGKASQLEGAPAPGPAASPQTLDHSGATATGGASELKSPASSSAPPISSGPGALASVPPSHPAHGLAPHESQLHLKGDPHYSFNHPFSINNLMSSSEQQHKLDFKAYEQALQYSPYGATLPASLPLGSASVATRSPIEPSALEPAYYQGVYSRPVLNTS
Setting: whole designed probe, mean of two concentrations, ends assumed
All sequences stand within: GTGAGCGGTGCCCATTGATGGGGAAC … TTTCACTGGGATCGTGGGGAC
Oligonucleotide	normalised bound fraction
TCTAAAATTCCAAAAAGTTTGCTTTTGCCCTTTTATAATACCTATCTCTAGCTTCTCTCTTTCTGGAGTAACTGCTGATTTATTTTCTGCCAAAAATTGCTTTATTTTCTTGAAAGATATAGAAATGCAATCATACAGTAAGTGCTCCTATTTTCCTGTTTTCTTTCATTCAACATAATTATTTTAAGACTTA	0.0211 ratio
AATTATAAATATATAATTATAAATTTATATAAAAATATGTAATTATAAATATGTAATTATATCTAATAGGGTATATTATTTTTTCTAAAACAAAGTAATCTTACAAATGAGAGATTAAACAAATTAGCATAACATAAATTTATCTGCTCTAAAGCTGGGAAAAGATGTGAAAGAAATTATTTTTGTCTTTAAA	0.173 ratio
GACTATGCCTATACTCTAAGCAAGGGATTCTGAACGTATGATTAGCAACAGATGTGTTTACATGAAGGGTTGAGAGTGGATCTCTTGTTGCATGTTTACATTAAGTTCTCATAAAAATCAATTATATTTTTGGGAGACTATTTTGATGTTATTTTGGGGGTTAATGGAGACTAAGTCCTATTAATTATGATAT	0.361 ratio
ATCTTCCCCCTCTTCCTTGCCCCACCAGCTCACCTTCCCGGGTTATTTGCACAAAGGAAAATAAATAAAGCCGGCATTCGTTAACCCTCTTCTGGCGCAAACTGCTGTTTGCTCTGGATGAATCATGGTCCTTTGGCGAGGCGTGGCTCCGGGAGAGCAAAGCACCGTGTCAGGGCCATGATCCGGGCTCGCC	0.366 ratio
GGACACAGCCAGAGGCCATGAGTGCTCAGGAGTGCCATAAACTGTGATTTTGAGACTGATAAGGCCAGGCTAAATAGCTTGCTGCGTCTGTCTTGTTTGCCTTTTTATATTTGAGGCCTATAAAAAAATAGTGAGAAAATAGCAAGATGCCCAGGAGACAGGTGATCTGATTCAGCCAGGGGGTGGGAGGTGG	0.0926 ratio
CCTAAGAAAAACTTATTTTAGCCCAATATTTTGGCCATTTCTTACCTCTTTCTGTAGAATTTCTTCTCGAACTTCAGAAACTACGAGAGACTCTTGTTTACTCTGCAGCTCATTAACTTGACTTTGGAAATGTCTTATAAGTACCTAGGAAATTGTTAGAAGTGCTGAGTTAATAAAGCTCCTCCTTGAACAC	0.279 ratio

Some of these lines once more (set 3):
Oligonucleotide	RBNS enrichment (R)
GCCUGCCCGCCUUCUGUCCUGGAUCAGGAAGAUGGUAGCCUGCUGUUAGUAGCUUCACAGGGCUUUUAUGUUUAACUUAUUCCCAGGGGCCGUCCCACCCUGCUGUGCCU	0.73
CCUUUCUUCACCAAGUGCAAUAGAUUUCCUCAUCUGAUAGGCUGUUGCUUUACCGUCACACGCGAUGUGCUCAGCCAAAUUCCCUACUCAAAAUAUCAUGUUAAAUUAGA	0.536
GCCCUGUUCCCCACUCCCUCCACUGGCCUCUGCUGUUCCUGUCUUUGCUCACACCCUCACAGCUGCUCUCUGGCAGAGGUUGGCAUAGCCUAGGAGCAGCUGCAAUUGCA	2.95
GCUUUGGGCUUUCUCCUUCUGUGGCCCCGGAGGAAGGAGAGACUGAGGCAAGGCAAAGUGAUAGUACACGGAAGCAGAACCGGAAACACCCAGGAACUGUUCAGAAAUCU	0.675
CCAUCUAUUCUUGCAGCCAUCUCAGCCAGGGUCUAUGUCUUAGGACCUUCCUCCGGCCUUCCAUGAGAAGCAGCCACAGGGGGCCUGGUUUCCUCCUAAGGCCCUUCUCU	0.53
CUUCCUCUGCUAAAUUGAUGUUGAUGCAAUCCUUACAAUGAUUGCUUUUAAAAUUUUAAGAUAGGAAAGAAAUCUAUAGAAAGUGUUCUGUUACAAAAUGUAACUGUUAC	0.44
